{"data": "Measurements of several laboratories", "note": "Parts stem from different laboratories: compare values within a part only."}
{"data": "Sample 1", "target": "Histone acetyltransferase KAT6A, both winged helices, GST fusion (KAT6A, Homo sapiens, UniProt Q92794, residues 1-181)", "method": "protein binding microarray", "molecule type": "double-stranded DNA, one strand shown", "sample": "in vitro", "tested at": "not given", "notes": "8-mer, flanks averaged, mean of 2 arrays, mostly near background", "reference": "not given", "direction": "higher = stronger binding", "Residues (chain)": "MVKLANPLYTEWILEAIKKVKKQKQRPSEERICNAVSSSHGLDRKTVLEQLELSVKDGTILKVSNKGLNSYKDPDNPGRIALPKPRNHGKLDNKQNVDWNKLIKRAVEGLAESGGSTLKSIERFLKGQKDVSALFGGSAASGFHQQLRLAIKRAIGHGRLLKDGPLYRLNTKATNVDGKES"}
{"Sequence": "GGTTACGA", "E-score": 0.115}
{"Sequence": "AACGCCCA", "E-score": -0.127}
{"Sequence": "GCACTGGC", "E-score": 0.00666}
{"Sequence": "ACGGGCAG", "E-score": 0.138}
{"Sequence": "AAGGAGTC", "E-score": -0.231}
{"Sequence": "GTCTTACA", "E-score": -0.0154}
{"Sequence": "CGGATCAA", "E-score": 0.131}
{"data": "Sample 2", "target": "Centromere-binding protein 1, full length, His-tagged (CBF1, Saccharomyces cerevisiae, UniProt P17106, residues 1-351)", "method": "competition protein-binding microarray", "molecule type": "double-stranded DNA, one strand shown", "sample": "in vitro", "tested at": "2 µM", "notes": "whole 60-bp probe, lowest competitor level", "together with": "Pho4 competitor, 0.05 µM", "direction": "higher = stronger binding", "constant ends, left off below": "… GTCTTGATTCGCTTGACGCTGCTG", "chain of UniProt P17106 (whole entry, looked up)": "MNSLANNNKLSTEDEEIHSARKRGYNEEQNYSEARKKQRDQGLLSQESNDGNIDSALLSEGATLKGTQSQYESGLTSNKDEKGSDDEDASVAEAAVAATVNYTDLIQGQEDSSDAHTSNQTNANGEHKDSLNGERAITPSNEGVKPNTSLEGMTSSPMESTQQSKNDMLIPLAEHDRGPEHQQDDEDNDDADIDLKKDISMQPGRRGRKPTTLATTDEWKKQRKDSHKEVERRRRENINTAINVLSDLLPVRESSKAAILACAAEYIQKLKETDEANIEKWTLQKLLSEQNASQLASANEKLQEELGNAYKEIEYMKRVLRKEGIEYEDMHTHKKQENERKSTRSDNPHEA"}
{"Sequence": "GAATGGTAACCCTGTCACCTGTCTTTGGGAAGGTGG", "fluorescence intensity": "145 a.u."}
{"Sequence": "AAATCGTCAGTAAAGTCAGAGTAATGATTTTTCACT", "fluorescence intensity": "80.4 a.u."}
{"Sequence": "GTTTCACTTGCGTACTTCGTGCCAGGCTTGATGGCT", "fluorescence intensity": "57.9 a.u."}
{"Sequence": "TCGCTCTTTTCACTGCTCGTGCCGATGCAACGCTCC", "fluorescence intensity": "80 a.u."}
{"Sequence": "CCTCGTCTGCTCTTCCACGTTCAGATGTTCCCTTGA", "fluorescence intensity": "62 a.u."}
{"Sequence": "CAAGATATAACTCATCACATGTTAAAGAACCCACAA", "fluorescence intensity": "985 a.u."}
{"Sequence": "AAAGAGACACAAAACTACGTGGGACAAGCTTGGGGT", "fluorescence intensity": "58.9 a.u."}
{"data": "Sample 3", "target": "Sal-like protein 4, full length isoform A (SALL4, Homo sapiens, UniProt Q9UJQ4, residues 1-1053)", "method": "universal PBM", "molecule type": "double-stranded DNA, one strand shown", "sample": "in vitro", "tested at": "600 nM", "notes": "8-mer, flanks averaged, mean of replicates", "direction": "higher = stronger binding", "chain of UniProt Q9UJQ4 (whole entry, looked up)": "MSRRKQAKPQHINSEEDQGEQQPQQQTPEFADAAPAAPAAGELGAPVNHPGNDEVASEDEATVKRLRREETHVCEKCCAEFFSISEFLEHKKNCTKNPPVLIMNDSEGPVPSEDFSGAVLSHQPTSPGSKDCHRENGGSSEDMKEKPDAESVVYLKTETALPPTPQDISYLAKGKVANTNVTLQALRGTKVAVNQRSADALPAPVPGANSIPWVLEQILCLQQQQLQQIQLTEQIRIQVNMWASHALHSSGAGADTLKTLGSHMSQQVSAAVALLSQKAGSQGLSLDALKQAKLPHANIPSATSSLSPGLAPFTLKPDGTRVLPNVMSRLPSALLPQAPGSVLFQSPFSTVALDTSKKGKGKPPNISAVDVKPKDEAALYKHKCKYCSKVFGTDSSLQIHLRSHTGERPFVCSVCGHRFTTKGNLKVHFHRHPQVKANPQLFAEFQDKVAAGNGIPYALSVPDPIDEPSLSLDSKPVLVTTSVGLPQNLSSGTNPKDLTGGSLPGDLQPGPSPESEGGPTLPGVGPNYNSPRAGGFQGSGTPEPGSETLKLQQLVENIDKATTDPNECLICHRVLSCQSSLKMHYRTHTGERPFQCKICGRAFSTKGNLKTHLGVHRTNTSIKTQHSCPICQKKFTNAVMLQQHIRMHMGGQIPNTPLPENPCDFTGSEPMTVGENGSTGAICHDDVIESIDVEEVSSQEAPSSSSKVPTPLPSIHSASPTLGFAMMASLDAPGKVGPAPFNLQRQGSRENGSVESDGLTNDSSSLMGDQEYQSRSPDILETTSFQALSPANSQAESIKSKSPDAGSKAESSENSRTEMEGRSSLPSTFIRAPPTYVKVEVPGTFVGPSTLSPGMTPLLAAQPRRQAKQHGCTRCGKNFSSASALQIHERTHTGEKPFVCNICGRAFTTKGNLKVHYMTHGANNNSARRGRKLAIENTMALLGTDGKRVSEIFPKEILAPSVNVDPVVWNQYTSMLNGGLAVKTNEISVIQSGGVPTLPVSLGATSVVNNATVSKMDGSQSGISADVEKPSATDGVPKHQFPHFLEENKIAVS"}
{"Sequence": "AGGTCGGG", "E-score": -0.258}
{"Sequence": "CTCCAGTA", "E-score": 0.0833}
{"Sequence": "GAGCCCCA", "E-score": -0.327}
{"Sequence": "GGCGGCCC", "E-score": -0.464}
{"Sequence": "AGGGCTAC", "E-score": -0.199}
{"data": "Single results of other studies"}
{"Molecule": "PhoQ, residues 284 288 289 292 302 303 TSTLRA", "target": "PhoP, residues 12 14 15 18 19 YHFSH (Escherichia coli, UniProt P23836)", "test": "Sort-seq, item: YFP reporter", "test system": "E. coli", "conditions": "PhoQ-PhoP variant library, together with: 10 µM Mg2+", "how to read": "reference: high Mg2+ state, higher = stronger signaling", "measurement": "fold induction", "value": 3.98}
{"note": "Repeated from above (sample 2):"}
{"Sequence": "TCGCTCTTTTCACTGCTCGTGCCGATGCAACGCTCC", "fluorescence intensity": "80 a.u."}
{"Sequence": "CCTCGTCTGCTCTTCCACGTTCAGATGTTCCCTTGA", "fluorescence intensity": "62 a.u."}
